Measurements pooled from the literature.
Protocols differ between the studies behind these lines.
Matrix: plasma
Route: oral

| SMILES | system | setting | AUC |
| --- | --- | --- | --- |
| CCn1c(C(=O)c2cc(C)cc(C#N)c2)c(C(C)C)c(=O)[nH]c1=O | human | 75 mg, multiple doses, once daily, steady state, healthy volunteers | 3.7 µg·h/mL |
| O=C(O)COC[C@H]1CC[C@H](COC(=O)N(c2ccccc2)c2ccc(Cl)cc2)CC1 | human | 40 µg, multiple doses, twice daily, steady state | 0.0255 µg·h/mL |
| Oc1ccc2c3c(cnc2c1)-c1ccc(C(F)(F)F)cc1O[C@@H]3c1ccc(OCCN2CC(CF)C2)cc1 | female human | 400 mg, single dose, fasted, healthy volunteers | 3.27 µg·h/mL |
| O=C(O)C[C@H](O)C[C@H](O)/C=C/c1c(C2CC2)nc2ccccc2c1-c1ccc(F)cc1 | male human | 2 mg, multiple doses, once daily, steady state | 0.248 µg·h/mL |
| Nc1ccc(-c2nc([C@H]3CCc4cc(-c5cc(Cl)ccc5-n5cnnn5)cc(=O)n43)c(F)[nH]2)c(F)n1 | human | 20 mg, single dose, fasted | 2.11 µg·h/mL |
| C[C@@H](N)c1cc(Cl)ccc1Cn1c(=S)[nH]c(=O)c2[nH]ccc21 | human | 2.5 mg, multiple doses, once daily, healthy volunteers | 234 nM·h |
| CCOc1ccc(Cc2cc([C@]34OC[C@](CO)(O3)[C@@H](O)[C@H](O)[C@H]4O)ccc2Cl)cc1 | human | 15 mg, single dose, healthy volunteers | 1.24 µg·h/mL |
| Cc1ccc(-c2cc(C(F)(F)F)nn2-c2ccc(S(N)(=O)=O)cc2)cc1 | human | 100 mg, single dose, fasted | 3.09 µg·h/mL |
| CN1C(=O)[C@@H](NC(=O)c2nnc(Cc3ccccc3)[nH]2)COc2ccccc21 | male human | 60 mg twice daily, multiple doses | 3.17 µg·h/mL |
| CCN1C(=O)CNc2ncc(-c3ccc(-c4nc[nH]n4)nc3C)nc21 | human | 16 mg, patients | 0.551 µg·h/mL |

A few entries again:
| SMILES | system | setting | AUC |
| --- | --- | --- | --- |
| Nc1ccc(-c2nc([C@H]3CCc4cc(-c5cc(Cl)ccc5-n5cnnn5)cc(=O)n43)c(F)[nH]2)c(F)n1 | human | 20 mg, single dose, fasted | 2.11 µg·h/mL |
